{"data": "Measured values pooled from the literature", "note": "Each numbered part is a random draw from the data of one study; scales do not carry over between parts.", "chain of UniProt O00750 (whole entry, looked up)": "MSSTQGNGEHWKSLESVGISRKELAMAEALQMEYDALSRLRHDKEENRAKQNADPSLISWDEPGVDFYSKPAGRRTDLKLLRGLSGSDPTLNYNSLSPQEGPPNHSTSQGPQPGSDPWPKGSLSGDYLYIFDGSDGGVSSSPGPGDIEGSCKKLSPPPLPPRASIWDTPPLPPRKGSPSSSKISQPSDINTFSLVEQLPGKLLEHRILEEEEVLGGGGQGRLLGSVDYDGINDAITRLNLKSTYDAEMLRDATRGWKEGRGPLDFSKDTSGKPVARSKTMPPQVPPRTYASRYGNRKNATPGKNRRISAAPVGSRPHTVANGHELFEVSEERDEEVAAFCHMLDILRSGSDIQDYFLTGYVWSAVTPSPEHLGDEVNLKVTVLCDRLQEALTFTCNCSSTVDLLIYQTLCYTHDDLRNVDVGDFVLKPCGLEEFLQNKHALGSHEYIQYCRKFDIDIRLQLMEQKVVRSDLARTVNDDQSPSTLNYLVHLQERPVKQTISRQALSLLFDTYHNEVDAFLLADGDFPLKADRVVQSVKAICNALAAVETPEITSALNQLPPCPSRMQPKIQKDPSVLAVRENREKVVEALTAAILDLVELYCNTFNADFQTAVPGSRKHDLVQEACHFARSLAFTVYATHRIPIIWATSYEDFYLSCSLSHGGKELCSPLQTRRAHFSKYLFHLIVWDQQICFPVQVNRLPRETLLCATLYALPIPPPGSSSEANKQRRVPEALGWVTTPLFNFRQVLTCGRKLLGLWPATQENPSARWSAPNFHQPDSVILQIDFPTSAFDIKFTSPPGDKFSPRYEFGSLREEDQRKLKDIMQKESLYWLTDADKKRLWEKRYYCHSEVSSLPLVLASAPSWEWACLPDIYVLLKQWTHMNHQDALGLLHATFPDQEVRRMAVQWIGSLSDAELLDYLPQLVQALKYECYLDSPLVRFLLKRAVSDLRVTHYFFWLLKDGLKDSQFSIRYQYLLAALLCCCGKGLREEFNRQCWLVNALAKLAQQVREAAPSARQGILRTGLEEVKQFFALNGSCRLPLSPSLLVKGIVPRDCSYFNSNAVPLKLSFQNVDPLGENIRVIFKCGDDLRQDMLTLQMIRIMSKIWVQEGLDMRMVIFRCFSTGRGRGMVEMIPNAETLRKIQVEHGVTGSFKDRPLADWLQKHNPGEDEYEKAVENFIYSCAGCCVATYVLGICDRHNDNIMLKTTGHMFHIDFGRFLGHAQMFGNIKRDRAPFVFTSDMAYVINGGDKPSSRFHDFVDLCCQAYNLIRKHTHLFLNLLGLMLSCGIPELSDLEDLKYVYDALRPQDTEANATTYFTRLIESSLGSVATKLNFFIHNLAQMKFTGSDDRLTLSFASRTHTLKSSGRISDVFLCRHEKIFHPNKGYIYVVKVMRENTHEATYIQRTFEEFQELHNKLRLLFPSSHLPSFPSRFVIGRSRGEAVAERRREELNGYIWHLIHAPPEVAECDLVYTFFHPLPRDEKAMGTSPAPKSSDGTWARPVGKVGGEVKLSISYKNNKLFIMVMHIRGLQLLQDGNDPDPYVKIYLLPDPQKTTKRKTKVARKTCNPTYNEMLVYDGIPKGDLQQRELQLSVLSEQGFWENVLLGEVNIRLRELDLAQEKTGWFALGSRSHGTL"}
{"data": "Study 1", "target": "Beta-1 adrenergic receptor (ADRB1, Homo sapiens, UniProt P08588)", "action": "antagonist", "chain of UniProt P08588 (whole entry, looked up)": "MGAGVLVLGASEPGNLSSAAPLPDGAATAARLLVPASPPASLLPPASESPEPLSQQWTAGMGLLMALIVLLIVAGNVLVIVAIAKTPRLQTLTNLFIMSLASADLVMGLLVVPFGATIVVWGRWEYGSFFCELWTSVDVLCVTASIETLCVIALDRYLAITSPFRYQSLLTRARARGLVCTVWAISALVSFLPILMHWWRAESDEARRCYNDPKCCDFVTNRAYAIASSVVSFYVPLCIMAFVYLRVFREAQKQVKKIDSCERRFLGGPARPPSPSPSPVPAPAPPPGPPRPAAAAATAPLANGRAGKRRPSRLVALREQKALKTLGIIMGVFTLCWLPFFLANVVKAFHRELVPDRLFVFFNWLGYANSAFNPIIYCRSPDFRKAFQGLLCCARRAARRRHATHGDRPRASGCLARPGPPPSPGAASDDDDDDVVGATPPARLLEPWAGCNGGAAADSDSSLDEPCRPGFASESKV"}
{"SMILES": "CCOCCN1C(=O)COC[C@@H]1[C@H](O)c1ccc(NC(=O)Cc2ccccc2)cc1", "IC50 [µM]": "≥ 100"}
{"SMILES": "c1cc(N2CCOCC2)ccc1-c1cc(-c2cn[nH]c2)c2cncn2c1", "IC50 [µM]": "≥ 100"}
{"SMILES": "O=C(CCc1ccccc1)Nc1ccc([C@@H](O)[C@H]2COCC(=O)N2Cc2ccccc2F)cc1", "IC50 [µM]": "≥ 100"}
{"SMILES": "CC1(C)CC(=O)c2cc(C(=O)Nc3ccc(F)cc3)c(O)nc2C1", "IC50 [µM]": "≥ 100"}
{"SMILES": "COc1ccccc1N1CCN(CC(=O)N2CCCC2c2ccc3c(c2)OCCO3)CC1 (stereo not shown)", "IC50 [µM]": "≥ 100"}
{"SMILES": "O=c1oc(Cl)c(Cl)c2ccccc12", "IC50 [µM]": "≥ 100"}
{"SMILES": "O=c1cc(-c2cnccn2)oc2c(-c3cn[nH]c3)nccc12", "IC50 [µM]": 50.1}
{"SMILES": "Cc1noc2c(N(C)C)cc(-c3ccc(Cl)cc3)nc12", "IC50 [µM]": "≥ 100"}
{"data": "Study 2", "target": "Calcium/calmodulin-dependent protein kinase type II subunit alpha (CAMK2A, Homo sapiens, UniProt Q9UQM7)", "read-out": "enzyme activity", "action": "inhibitor", "concentration": "10 µM", "chain of UniProt Q9UQM7 (whole entry, looked up)": "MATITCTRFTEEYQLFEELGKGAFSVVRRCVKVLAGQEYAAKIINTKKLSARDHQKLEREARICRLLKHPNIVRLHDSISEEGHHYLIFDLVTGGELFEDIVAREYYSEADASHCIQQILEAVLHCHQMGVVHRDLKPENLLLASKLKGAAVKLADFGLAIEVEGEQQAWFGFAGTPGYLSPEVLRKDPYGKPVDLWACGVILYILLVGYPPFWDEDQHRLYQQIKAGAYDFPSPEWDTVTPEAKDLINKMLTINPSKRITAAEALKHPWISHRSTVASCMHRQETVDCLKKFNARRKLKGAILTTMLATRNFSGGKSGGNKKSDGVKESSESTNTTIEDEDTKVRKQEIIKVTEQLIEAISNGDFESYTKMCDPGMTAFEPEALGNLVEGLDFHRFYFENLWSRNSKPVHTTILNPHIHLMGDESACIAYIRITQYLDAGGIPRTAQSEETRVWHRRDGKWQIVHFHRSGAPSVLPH"}
{"Compound": "CCOCCn1c(C2CCN(CCc3ccc(C(C)(C)C(=O)O)cc3)CC2)nc2ccccc21", "inhibition [%]": -7}
{"Compound": "CC1(C)CCC[C@]2(C)[C@@H](C=O)C(C=O)=CC[C@@H]12", "inhibition [%]": 4}
{"Compound": "CCOC(=O)/C=C/c1ccc(OC)cc1", "inhibition [%]": -2}
{"Compound": "CO/N=C(\\C(=O)N[C@@H]1C(=O)N2C(C(=O)O)=C(COC(N)=O)CS[C@H]12)c1ccco1", "inhibition [%]": -15}
{"Compound": "Nc1ccn([C@@H]2O[C@H](COP(=O)(O)O)[C@@H](O)[C@H]2O)c(=O)n1", "inhibition [%]": 25}
{"Compound": "O=C1O[C@H]([C@@H](O)CO)C(O)=C1OP(=O)(O)O", "inhibition [%]": 2}
{"Compound": "O=C(Nc1c(Cl)cncc1Cl)c1ccc(OC(F)F)c(OCC2CC2)c1", "inhibition [%]": -15}
{"Compound": "COC(=O)c1c(O)cc(O)cc1O", "inhibition [%]": -12}
{"data": "Study 3", "organism": "Sarcocystis neurona", "read-out": "parasite growth", "concentration": "10 µM", "time": "96 h"}
{"SMILES": "CCCC(=O)Nc1ccc(OCC(O)CNC(C)C)c(C(C)=O)c1 (stereo not shown)", "inhibition [%]": -17.9}
{"SMILES": "CC(Oc1c(Cl)cccc1Cl)C1=NCCN1 (stereo not shown)", "inhibition [%]": 0.5}
{"SMILES": "O=C1CCC(N2C(=O)c3ccccc3C2=O)C(=O)N1 (stereo not shown)", "inhibition [%]": -15.9}
{"SMILES": "NS(=O)(=O)c1cc2c(cc1Cl)NCNS2(=O)=O", "inhibition [%]": -11.5}
{"SMILES": "CN1[C@@H]2CC[C@H]1C[C@@H](OC(=O)C(CO)c1ccccc1)C2 (stereo partly shown)", "inhibition [%]": -14}
{"SMILES": "C[C@]12CCC(=O)C=C1CC[C@@H]1[C@@H]2[C@@H](O)C[C@@]2(C)[C@H]1CC[C@]2(O)C(=O)CO", "inhibition [%]": 0.9}
{"SMILES": "Cn1nnc2c(C(N)=O)ncn2c1=O", "inhibition [%]": -10.7}
{"SMILES": "C#C[C@]1(OC(C)=O)CC[C@H]2[C@@H]3CCC4=CC(=O)CC[C@@H]4[C@H]3CC[C@@]21C", "inhibition [%]": -10.4}
{"data": "Other studies, line by line"}
{"SMILES": "Cn1cncc1[C@](O)(COc1ccc(C#N)cc1-c1ccc(OC(F)(F)F)cc1)c1ccc(C#N)cc1", "target": "Phosphatidylinositol 4-phosphate 3-kinase C2 domain-containing subunit beta (PIK3C2B, Homo sapiens, UniProt O00750)", "test": "cell-free assay, competition with immobilised ligand", "setting": "1 µM", "quantity": "remaining binding", "result": "89%"}
